Measured values collected from several papers.
Numbered parts are unrelated; each lists some results of a single study.

Sample 1 — technique: RNA Bind-n-Seq; molecule type: RNA; sample: in vitro; concentration: not given; reference: input RNA pool; reading: higher = stronger binding
Target: RING finger protein unkempt homolog, zinc fingers 1-6, GST-SBP tag (UNK, Homo sapiens, UniProt Q9C0B0, residues 30-357)
Setting: RNA with constant flanks, human and mouse sites, ends assumed
Construct (chain): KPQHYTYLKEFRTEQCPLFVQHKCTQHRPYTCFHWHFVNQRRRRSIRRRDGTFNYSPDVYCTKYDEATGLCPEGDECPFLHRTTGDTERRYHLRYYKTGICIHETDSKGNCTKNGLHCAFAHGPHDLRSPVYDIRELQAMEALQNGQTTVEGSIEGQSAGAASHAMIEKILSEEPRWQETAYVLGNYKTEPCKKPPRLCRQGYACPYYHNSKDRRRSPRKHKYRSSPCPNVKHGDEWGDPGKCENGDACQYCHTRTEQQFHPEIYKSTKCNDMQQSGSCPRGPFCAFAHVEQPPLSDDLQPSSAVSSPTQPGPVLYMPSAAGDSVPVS
Sequence | bound/input enrichment
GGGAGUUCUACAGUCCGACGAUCUGUGGUGGAGAAGGUAUCUCAUUCCUCUCUAACAUCAUCUCCACUUUGCAUCUGUCUCUCUUAGUCUGCUUUUUUUCCACCGAUGUAACAGACCUGGAGCCAGCAGGACUCAGAGGAAAGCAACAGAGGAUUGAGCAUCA | 0.302 ratio
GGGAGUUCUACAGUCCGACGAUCUCAAGGAAAACAUCAACUGAAUGUGCAUCUAGUACAGAAAAUUCUUUCGUUGUCAGCAGUAGUUCAGUUUCUAAUACCACUGUUGCUGGAACUCCCCCAUACCCUACAAGUCGGAGGCAACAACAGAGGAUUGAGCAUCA | 0.225 ratio
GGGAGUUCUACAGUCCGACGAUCAAUCUCAGAGGCAGUGGUGUCCAUGGUGGGCUCAUGGUUCUAGAGCCUCGUUUUAACGUAGAAACAAUGGCUCAGUUAUUGAACAUCCCACCCAAUAAGACUUUGCUGCGAAGACAUUUGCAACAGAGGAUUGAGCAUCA | 0.0996 ratio
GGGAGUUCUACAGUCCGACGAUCCACACAAGUAUGAAGUUUCUUUCAGGUGUAAAUAAUGAAAAAUAAAUGCCUCAUAAAUGAUAGUACAAUGUAACUAUCAAAGUUUUAUAAUUCAUUAUGAGUUAACCAUUUUAAUGUUUCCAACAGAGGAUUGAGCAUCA | 0.231 ratio
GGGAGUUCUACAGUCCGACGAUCCCAGGAAGAAAGUGAAUCCUGAGACCAGACAGAAAGGCCAGGUUCUGGGAGAAGUAGACCUAGUUGGCAUAGUGAGGCUCACAGAAAACAGGAAGCCCUUUGUUCCGGAGAACAGCCCAGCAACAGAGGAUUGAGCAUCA | 0.581 ratio
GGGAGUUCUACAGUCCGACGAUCGCAGCUAUUGCACUAGUCAUUUUCUUCUUGAUUGGAUUCAUGAGUGGCUACCUGGGCUAUUGUAAGCGUGUAGAACAAAAAGAGGAGUGUGUGAAACUGGCUGAAACGGAGGAGACAGACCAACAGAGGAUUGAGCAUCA | 0.463 ratio
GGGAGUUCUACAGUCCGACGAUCUCAGCGAGGACCUCUGCAAGCCAAAAAAUGUCGUCCCAGCAAUAUCAGCAGCAACGUAGAAAAUUUGCAGCUGCCUUCCUGGCAUUGAUUUUCAUCUUGGCAGCUGUGGACACUGCUGAGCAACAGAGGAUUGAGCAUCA | 0.107 ratio
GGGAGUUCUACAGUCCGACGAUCAAAAUUUAUUUCAUGCCCUGGACUCCCUAUCGUACCGAUACUUUAAUAGAAUAUGCUUCUUUAGAAGAUUUCCAAAAUAGUCGCCAAACAACAACAUAUAAACUUCCAAAUCGAGUAGAUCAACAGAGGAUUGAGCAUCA | 8.88 ratio

Sample 2 — technique: protein-binding microarray; molecule type: double-stranded DNA, one strand shown; sample: in vitro; concentration: 250 nM; setting: 60-bp whole probe; added: salmon DNA 0.4 mg/ml; reference: random background probes; reading: higher = stronger binding; all sequences stand within: GCCTAGCAC … GTCTTGATTCGCTTGACGCTGCTG
Target: Interferon regulatory factor 5, full length, phosphomimetic (IRF5, Homo sapiens, UniProt Q13568-2, residues 1-514, K96S/S451D/S453D/S456D/S462D)
Sequence | log fluorescence [z-score]
TGAGATCTCAGTTTCGATTAGTGCTAG | 9.6
TTAGGCTTCGGTATCGGTTAGTGCTAG | 6.04
GACGACATCGGGTATCGAGACGTGCTA | 0.581
AGTCCTGTCCAAGATGAGGAGTGCTAG | -0.345
GACGATCTCAGTCTCGACACGTGCTAG | -0.0111
CAGGAATTGAAAATTAGTGTTGTGCTA | 0.497
TTAGGACTGGGGTTTCGATTAGTGCTA | 5
TTCGGTCTCGGTCTCGGTTAGTGCTAG | 2.06
TTAGATATTAGTCTCGATTAGTGCTAG | 1.46
TTAGATTTCGGGACTGGCTTAGTGCTA | 2.37
TCAGCTCTTTCGTTACTTACTGTGCTA | 5.44
GACGATATCAGTTTCGAGAGGTGCTAG | 6.37
ATGACTCCCTCTCTGGCCAAGTGCTAG | -0.433

Sample 3 — technique: RNA Bind-n-Seq; molecule type: RNA; sample: in vitro; concentration: 365 nM; reference: no-protein control; reading: higher = stronger binding
Target: RNA binding protein fox-1 homolog 2, RRM domain, GST-SBP tag (RBFOX2, Homo sapiens, UniProt O43251-10, residues 100-194)
Setting: natural RNA segment, single round, ends assumed
Construct (chain): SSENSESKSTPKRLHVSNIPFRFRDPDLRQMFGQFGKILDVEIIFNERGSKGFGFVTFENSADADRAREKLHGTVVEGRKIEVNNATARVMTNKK
Sequence | RBNS enrichment (R)
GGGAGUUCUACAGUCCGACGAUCUAUCUCAGGAUAUGGAAGUUUCUGGGUUUAUUUACCCCUCAGUGCCCAGAGUUAAAGUUUCAGAAGAGACUUGUGCACAUAAGGGCUUCAUCUCAAGUGUAUUGCAGUAAUGGAAUUCUCGGGUGCCAA | 0.292
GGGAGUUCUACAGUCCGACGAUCAUGGACAGACAGAUCCCUGAUGUCUGUCACUAUAGACACACGUGUUGUACAUGUGGCCCUUAACACUUGACACUCUUAACACUACUCAUGGGGCUGGGUAGAGGGAGGCUUGGAAUUCUCGGGUGCCAA | 0.626
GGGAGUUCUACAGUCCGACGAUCCACAGUUUUAAGAGUUGUAUGAACAUGGAGAGGACUUUUGGUUUUUAUAUUUCUCGUAUUUAAUAUGGGUGAACACCAACUUUUAUUUGGAAUAAUAAUUUUCCUCCUAAUGGAAUUCUCGGGUGCCAA | 0.838
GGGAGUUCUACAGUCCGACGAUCUCUUGCCCUGUCUCUGAACCUUCAGAACAUUGAUCCUUGCCGCAGCCCCACUAGCCAAGAGAAACAGAGAAAGACCAUUCCCCCUGCCUGUCCUUGCGGCCCUGUCUUCUUGGAAUUCUCGGGUGCCAA | 2.23
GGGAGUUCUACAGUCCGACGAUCUACUUGAAACUGUUUAAGUACAAGUUGAACAAAAAUUAUGAAAAGGUAUAUUUGCUUCUCGGGAAAGCAAAGAAGCUGCUUUAAGAAAAUUAAAAGGGGACUAAAAAUUUUGGAAUUCUCGGGUGCCAA | 0.636
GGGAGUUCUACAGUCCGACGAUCUGAAUGGAACUCAUUAGCUGUGUGCAUAUAAAAAGAUCACAUCAGGUGGAUGGAGAGACAUUUGAUCCCUUGUUUGCUUAAUAAAUUAUAAAAUGAUGGCUUGGAAAAGCUGGAAUUCUCGGGUGCCAA | 0.636
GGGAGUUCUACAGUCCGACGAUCAUGGAUAUCGCUUUGUUUUCCUUUGAAAGUAAUUAUAUCUUAAGAACAUAGUAUCAUGAAUGGAGUAGACAGGGAGGCUGCAGAAGCCAUUUCUCUUUGUAGAUAAAAAGUGGAAUUCUCGGGUGCCAA | 0.486
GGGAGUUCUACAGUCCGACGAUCGGGUCAAGAAAAUGAAUGCGCCAAUAACAGUAAGAGCUGUGGAAGACACCCAUACCUGUAUAUACAUGCUCGAGAAAGCUGUAAUGUGAAAAUCAUGUUCUCUAUUUAUGUGGAAUUCUCGGGUGCCAA | 0.936
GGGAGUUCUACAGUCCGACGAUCUGUUAGUCUCUGAGGAACAGUGCAACUCCUUCGAACAUGAUUUAGAAAGAGGGCAUUCAUGCAUAGAAUUCUGAGGCCUGGCACAACUCCCUGCCCAGGAGCACAGCUUGUGGAAUUCUCGGGUGCCAA | 0.76
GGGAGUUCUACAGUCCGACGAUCUUAUGCUAAAAUCCCAGAUGUUGUAGGACUGUACUUCUGUAGAGUUUAGACUGAGCAUCGAUCCCGUCUCCCCGCGAGUGCUGUCGGACUCCGUCCCCAAGGGCCAGGCCUGGAAUUCUCGGGUGCCAA | 0.701
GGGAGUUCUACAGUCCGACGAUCGCUUCUAUGUAGUCCUACCACCUGCACAGAGGGGCUGGCAGGGCAGAAGUGUGACCUCAGUUAUAUAUACAUCCCAGCUCUGCCCAGUAUCCCUCACUUACCAAGAGGAGUGGAAUUCUCGGGUGCCAA | 0.309
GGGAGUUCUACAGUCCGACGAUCCUAUUGUAAAAAUUGCUCUUAAUUCUUGAAGAGGCUACUGAGAAGCAGUGGGGUAGAUCUCAUGAGGUUACCUACAGCUACUUCAUGUUCUUACACUGUAAGCCUUGUUGUGGAAUUCUCGGGUGCCAA | 0.323

Sample 4 — technique: protein binding microarray; molecule type: double-stranded DNA, one strand shown; sample: in vitro; concentration: not given; reference: not given; reading: higher = stronger binding
Target: Histone acetyltransferase KAT6A, both winged helices, GST fusion (KAT6A, Homo sapiens, UniProt Q92794, residues 1-181)
Setting: 8-mer, flanks averaged, mean of 2 arrays, mostly near background
Residues (chain): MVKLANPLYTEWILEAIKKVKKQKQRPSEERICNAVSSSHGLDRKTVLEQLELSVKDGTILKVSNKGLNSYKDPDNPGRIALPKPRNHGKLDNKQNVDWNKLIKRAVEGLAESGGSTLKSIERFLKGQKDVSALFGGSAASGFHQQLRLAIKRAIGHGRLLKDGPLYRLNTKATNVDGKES
Sequence | E-score
CCTTCCAA | -0.204
ATGCCTCG | 0.0369
CGTGTGCA | -0.0126
TAGTAGCA | 0.0119
ACGGTGCA | 0.0467
GATTATCA | -0.0105
AGTCTGAG | -0.227
GGAACTCA | -0.107
ATAGCAGG | -0.178
AACATCTA | -0.0914
GCTATTCC | -0.0647
AAGCTCCT | -0.149
CGTCGTTA | 0.0309
AGAGCTAC | -0.0386
AAATCAAG | 0.0331
GTCGAAAA | 0.00557
GAGCGGCA | 0.26
CACTGTAG | 0.0138
ACAACACC | -0.0279
AAGGAATT | -0.124
GGGGCCGA | 0.0511
CCTTGAAG | -0.115
CGTGTGTA | 0.0278
CCGCCTCG | 0.242
GAACAAAA | 0.0488

Sample 5 — technique: RNA Bind-n-Seq; molecule type: RNA; sample: in vitro; concentration: 200 nM; setting: whole 134-nt RNA, ends assumed; added: 150 mM KCl; reference: input library; reading: higher = stronger binding
Target: Fragile X messenger ribonucleoprotein 1, C-terminal low-complexity region (Fmr1, Mus musculus, UniProt P35922)
Sequence | log2 enrichment
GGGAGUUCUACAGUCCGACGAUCCUCAAGUCCUGUGCUACACAUCGUAUGUACCGAAUCGGAAAGGAAAGGAAAGGGAAAGUAUUAUGUUACGCCGUUCGGAUCUGCACUUCCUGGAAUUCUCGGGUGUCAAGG | -0.378
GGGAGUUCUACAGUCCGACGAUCUAACUUUAGAGGAGGAUCUGAUGGAUAUGGCAGUGGACGUGGAUUUGGGGAUGUCUAUAAUGGGUAUGGAGGAGGACCUGGAGGUGGCAAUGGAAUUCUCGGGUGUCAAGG | 0.329
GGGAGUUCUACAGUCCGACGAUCUAACUUUAGAGGAGGAUCUGAUGGAUAUGGCAGUGGACGUGGAUUUGGGGAUGGGUAUAAUGGGUAUGGAGGAGGACCUGGAGGUGGCAAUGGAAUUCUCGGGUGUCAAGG | 0.21
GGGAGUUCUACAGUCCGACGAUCGUCCUGUGCUACACAUCGUAUGUACCGAAUCGGGGCCCCCGGGCCCCCGGGCCCCCGGGAAAGUAUUAUGUUACGCCGUUCGGAUCUGCAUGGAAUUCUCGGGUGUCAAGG | -0.693
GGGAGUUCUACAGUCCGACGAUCACCAUGCAGGUGGGCAUCUUUGGGAAGUGGGGCAAGGGGGGGAUGGGGAGGGGGGUAACACUUUGGGAACAGGUGGUCCCAGGUCGUUUCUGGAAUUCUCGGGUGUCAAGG | 0.837
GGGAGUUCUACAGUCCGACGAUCCCUGUGCUACACAUCGUAUGUACCGAAUCGGGGUUUUUUUGGGGUUUUUUUGGGGUGGGGAAAGUAUUAUGUUACGCCGUUCGGAUCUGCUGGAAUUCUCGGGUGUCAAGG | 0.518
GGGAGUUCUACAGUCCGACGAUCUCAAGUCCUGUGCUACACAUCGUAUGUACCGAAUCGGGGAAGGGGAAGGAAGGGAAAGUAUUAUGUUACGCCGUUCGGAUCUGCACUUCCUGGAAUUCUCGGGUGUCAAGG | 0.168
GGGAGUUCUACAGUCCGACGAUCUAACUUUAGAGGAGGAUCUGAUGGAUAUGGCAGUGGACGUGGAUUUGGGGAUGGCUAUAAUGGGUAUGGAGGACGACCUGGAGGUGGCAAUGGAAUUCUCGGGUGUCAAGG | 0.386
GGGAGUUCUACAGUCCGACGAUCAAGUCCUGUGCUACACAUCGUAUGUACCGAAUCGGGUUUUUUUGGGUGGGUUUGGGAAAGUAUUAUGUUACGCCGUUCGGAUCUGCACUUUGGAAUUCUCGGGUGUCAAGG | 0.981
